Measurements pooled from the literature.
Each numbered part is a random draw from the data of one study; scales do not carry over between parts. Changes are numbered by the printed parent chain.

Set 1
Target: CCNA1, cyclin fold, Cln2 fusion (human)
Technique: yeast growth competition, sequencing
Matrix: yeast
Notes: weak parent motif
Baseline: not given
Reading: higher = stronger binding
Endpoint: normalised enrichment score
Parent: RBL1 docking peptide (human); GSAKRRLFGEDPP; partner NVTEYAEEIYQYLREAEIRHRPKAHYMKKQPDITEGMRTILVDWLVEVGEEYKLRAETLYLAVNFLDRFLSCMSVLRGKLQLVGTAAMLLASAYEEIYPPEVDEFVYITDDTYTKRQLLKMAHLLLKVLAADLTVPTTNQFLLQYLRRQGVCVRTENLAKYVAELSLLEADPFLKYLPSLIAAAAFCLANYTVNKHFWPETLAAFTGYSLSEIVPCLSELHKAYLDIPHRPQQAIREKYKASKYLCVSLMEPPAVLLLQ
R6N: 0.886
R6I: 0.0896
D11Y: 0.792
F8V: 0.379
R5A: 0.38
L7P: 0.379
L7N: 0.521

Set 2
Target: Histone acetyltransferase KAT6A, both winged helices, GST fusion (KAT6A, Homo sapiens, UniProt Q92794, residues 1-181)
Technique: protein binding microarray
Molecule type: double-stranded DNA, one strand shown
Matrix: in vitro
Tested at: not given
Notes: 8-mer, flanks averaged, mean of 2 arrays, mostly near background
Baseline: not given
Reading: higher = stronger binding
Endpoint: E-score
Target sequence (chain): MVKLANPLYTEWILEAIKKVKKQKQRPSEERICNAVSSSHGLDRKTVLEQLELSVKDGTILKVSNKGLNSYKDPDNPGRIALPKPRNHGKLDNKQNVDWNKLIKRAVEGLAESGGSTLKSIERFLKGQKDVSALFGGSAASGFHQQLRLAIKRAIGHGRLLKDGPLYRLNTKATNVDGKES
GAGGCAAA: -0.264
GCCTAGGC: 0.106
GAGGACAC: -0.0183
ACGTAATG: -0.145
CTGAATCC: -0.0977
CTCGCCTA: -0.045
ATTCACAA: -0.106
ACCACGCT: 0.0096
CCTCAGCG: 0.197
CGACGATC: 0.00302
GTCAGACA: 0.0772

Set 3
Target: Protein max, full length (MAX, Homo sapiens, UniProt P61244-2, residues 1-151)
Technique: protein-binding microarray
Molecule type: double-stranded DNA, one strand shown
Matrix: in vitro
Tested at: not given
Notes: k-mer, scored over probes, only values ≥0.25
Reading: higher = stronger binding
Endpoint: E-score
CATAGCAC: 0.289
CGTGTGAG: 0.331
CGCGGCCA: 0.251
GCGCATGA: 0.384
CATGCTGC: 0.451
ATGTGCCG: 0.337
CGTGCCTA: 0.29
CATGGTGG: 0.349
ATGGGGGC: 0.282
CAACACGC: 0.395

Single results of other studies
PhoQ, residues 284 288 289 292 302 303 ASVMEA
fold induction (PhoP, residues 12 14 15 18 19 NHFIF (Escherichia coli, UniProt P23836); Sort-seq, measured: YFP reporter; E. coli; PhoQ-PhoP variant library, together with: 10 µM Mg2+; baseline: high Mg2+ state, higher = stronger signaling): 30.2
